Experimental data pooled from the literature.
Each line is one published result; not all experiments were run side by side.
GLP1R: Glucagon-like peptide 1 receptor (GLP1R, Homo sapiens, UniProt P43220)
UniProt P21730, sequence (whole entry, looked up): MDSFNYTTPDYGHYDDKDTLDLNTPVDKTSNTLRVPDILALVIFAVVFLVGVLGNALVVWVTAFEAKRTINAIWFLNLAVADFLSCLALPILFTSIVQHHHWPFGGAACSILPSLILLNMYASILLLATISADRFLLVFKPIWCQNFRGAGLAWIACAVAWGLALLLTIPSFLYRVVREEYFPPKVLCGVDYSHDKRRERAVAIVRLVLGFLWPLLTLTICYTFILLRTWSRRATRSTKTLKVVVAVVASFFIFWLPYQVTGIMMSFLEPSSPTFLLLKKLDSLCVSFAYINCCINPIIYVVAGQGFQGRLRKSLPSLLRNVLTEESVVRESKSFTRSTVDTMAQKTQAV
UniProt Q04912, sequence (whole entry, looked up): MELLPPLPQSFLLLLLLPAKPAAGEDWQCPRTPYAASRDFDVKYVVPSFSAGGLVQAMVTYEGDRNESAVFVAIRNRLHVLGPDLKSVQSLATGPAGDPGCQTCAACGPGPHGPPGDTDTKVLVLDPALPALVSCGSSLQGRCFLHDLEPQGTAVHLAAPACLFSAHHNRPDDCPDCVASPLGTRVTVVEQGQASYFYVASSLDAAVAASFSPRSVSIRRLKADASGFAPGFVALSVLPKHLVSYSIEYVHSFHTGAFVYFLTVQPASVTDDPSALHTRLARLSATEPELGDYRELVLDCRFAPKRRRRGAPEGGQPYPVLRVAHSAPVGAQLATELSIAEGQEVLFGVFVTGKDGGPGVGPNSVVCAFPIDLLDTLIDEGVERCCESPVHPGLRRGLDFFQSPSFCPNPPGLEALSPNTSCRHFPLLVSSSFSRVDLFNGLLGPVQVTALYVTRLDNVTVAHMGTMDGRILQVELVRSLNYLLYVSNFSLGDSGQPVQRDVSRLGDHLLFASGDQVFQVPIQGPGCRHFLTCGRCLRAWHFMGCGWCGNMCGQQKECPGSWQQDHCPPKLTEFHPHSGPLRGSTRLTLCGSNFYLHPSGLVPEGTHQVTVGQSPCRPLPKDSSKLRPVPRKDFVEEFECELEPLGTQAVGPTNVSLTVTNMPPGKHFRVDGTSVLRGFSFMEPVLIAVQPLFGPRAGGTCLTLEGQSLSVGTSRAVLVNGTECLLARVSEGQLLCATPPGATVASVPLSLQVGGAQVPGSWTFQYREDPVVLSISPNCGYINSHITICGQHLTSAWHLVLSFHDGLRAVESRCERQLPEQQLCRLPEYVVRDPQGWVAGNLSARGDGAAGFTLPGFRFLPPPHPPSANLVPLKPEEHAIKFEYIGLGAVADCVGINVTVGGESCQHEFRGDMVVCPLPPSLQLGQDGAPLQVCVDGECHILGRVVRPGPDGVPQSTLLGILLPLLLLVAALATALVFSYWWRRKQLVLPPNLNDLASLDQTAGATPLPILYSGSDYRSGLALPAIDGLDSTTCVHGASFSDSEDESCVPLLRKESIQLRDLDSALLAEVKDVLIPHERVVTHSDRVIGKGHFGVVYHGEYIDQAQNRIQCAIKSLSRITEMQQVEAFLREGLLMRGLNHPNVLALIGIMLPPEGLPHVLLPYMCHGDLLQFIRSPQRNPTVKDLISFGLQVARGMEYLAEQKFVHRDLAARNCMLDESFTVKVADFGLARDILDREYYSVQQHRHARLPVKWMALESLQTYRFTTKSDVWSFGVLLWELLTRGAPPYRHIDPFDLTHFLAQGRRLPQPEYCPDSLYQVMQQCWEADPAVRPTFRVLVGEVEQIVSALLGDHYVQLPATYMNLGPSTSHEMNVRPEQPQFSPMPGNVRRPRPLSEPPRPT
UniProt P42684, sequence (whole entry, looked up): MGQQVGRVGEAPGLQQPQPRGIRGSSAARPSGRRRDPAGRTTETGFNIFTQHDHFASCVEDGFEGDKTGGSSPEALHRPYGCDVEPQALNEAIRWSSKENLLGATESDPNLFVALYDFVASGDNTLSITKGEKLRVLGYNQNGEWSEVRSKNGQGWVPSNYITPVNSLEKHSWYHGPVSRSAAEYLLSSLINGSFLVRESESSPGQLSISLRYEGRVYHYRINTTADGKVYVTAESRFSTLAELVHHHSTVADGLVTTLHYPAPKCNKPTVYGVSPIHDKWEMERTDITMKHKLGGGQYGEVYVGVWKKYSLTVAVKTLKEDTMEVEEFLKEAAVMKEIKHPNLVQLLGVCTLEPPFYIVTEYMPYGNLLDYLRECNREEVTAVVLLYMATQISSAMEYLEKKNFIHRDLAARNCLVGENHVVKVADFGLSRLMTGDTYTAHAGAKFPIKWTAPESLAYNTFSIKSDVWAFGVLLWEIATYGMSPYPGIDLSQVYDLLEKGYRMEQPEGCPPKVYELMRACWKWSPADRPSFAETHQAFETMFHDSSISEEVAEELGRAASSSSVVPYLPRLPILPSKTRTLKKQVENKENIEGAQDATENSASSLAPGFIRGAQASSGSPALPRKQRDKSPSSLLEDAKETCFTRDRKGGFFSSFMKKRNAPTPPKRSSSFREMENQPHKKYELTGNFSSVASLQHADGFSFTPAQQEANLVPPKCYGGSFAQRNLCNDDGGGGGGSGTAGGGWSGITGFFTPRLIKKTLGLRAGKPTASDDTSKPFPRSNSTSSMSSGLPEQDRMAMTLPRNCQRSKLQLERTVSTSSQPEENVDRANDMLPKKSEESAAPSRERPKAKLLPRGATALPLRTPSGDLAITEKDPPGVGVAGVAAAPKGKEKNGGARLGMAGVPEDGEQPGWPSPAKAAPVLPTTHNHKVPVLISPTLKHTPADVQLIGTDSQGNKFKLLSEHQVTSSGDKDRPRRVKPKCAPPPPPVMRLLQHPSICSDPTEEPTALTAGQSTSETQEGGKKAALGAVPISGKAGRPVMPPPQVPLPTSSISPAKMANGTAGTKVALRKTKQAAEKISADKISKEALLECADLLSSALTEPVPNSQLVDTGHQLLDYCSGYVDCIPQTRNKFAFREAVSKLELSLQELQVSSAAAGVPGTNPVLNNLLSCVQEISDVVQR
UniProt P39656, sequence (whole entry, looked up): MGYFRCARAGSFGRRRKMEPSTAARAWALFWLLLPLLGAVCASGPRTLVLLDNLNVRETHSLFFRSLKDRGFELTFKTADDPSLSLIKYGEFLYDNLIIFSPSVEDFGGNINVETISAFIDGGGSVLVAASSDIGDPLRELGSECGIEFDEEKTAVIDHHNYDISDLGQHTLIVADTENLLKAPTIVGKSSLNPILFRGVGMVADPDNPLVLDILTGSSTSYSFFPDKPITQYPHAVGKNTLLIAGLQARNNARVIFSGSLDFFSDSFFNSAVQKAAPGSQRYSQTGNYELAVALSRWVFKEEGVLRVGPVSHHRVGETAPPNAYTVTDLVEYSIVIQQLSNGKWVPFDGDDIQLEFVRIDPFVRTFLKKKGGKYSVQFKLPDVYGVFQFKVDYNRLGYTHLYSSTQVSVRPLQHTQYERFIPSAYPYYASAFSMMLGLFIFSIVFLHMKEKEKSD

Compound	target or system	assay	system	setting	how to read	measurement	result
CCCCCCCCCCCC(=O)N[C@H]1CCOC1=O	qscR, ligand-binding domain (Pseudomonas aeruginosa, UniProt G3XD77)	ligand binding, FRET displacement		ligand-binding domain		Kd	0.306 nM
COc1ccc(N2C(=O)N(c3c(C)cccc3Cl)Cc3cnc(Nc4ccc(C5CCN(C)CC5)cc4OC)nc32)nc1	MST1R (Homo sapiens, UniProt Q04912)	kinase activity, inhibitor		0.5 µM, kinase RON		inhibition	5%
CC[C@H](C)[C@H](NC(=O)[C@H](Cc1ccccc1)NC(=O)[C@H](CCC(=O)O)NC(=O)[C@H](CCCNC(=N)N)NC(=O)[C@H](C)NC(=O)[C@H](C)NC(=O)[C@H](CCC(N)=O)NC(=O)[C@H](CCC(=O)O)NC(=O)[C@H](CCC(=O)O)NC(=O)[C@H](CC(C)C)NC(=O)[C@H](Cc1ccc(O)cc1)NC(=O)[C@H](CO)NC(=O)[C@H](CO)NC(=O)[C@@H](NC(=O)[C@H](CC(=O)O)NC(=O)[C@H](CO)NC(=O)[C@@H](NC(=O)[C@H](Cc1ccccc1)NC(=O)[C@@H](NC(=O)CNC(=O)[C@H](CCC(=O)O)NC(=O)[C@H](C)NC(=O)CCc1cnc[nH]1)[C@@H](C)O)[C@@H](C)O)C(C)C)C(=O)N[C@@H](C)C(=O)N[C@@H](Cc1c[nH]c2ccccc12)C(=O)N[C@@H](CC(C)C)C(=O)N[C@H](C(=O)N[C@@H](CCCNC(=N)N)C(=O)NCC(=O)N[C@@H](CCCNC(=N)N)C(=O)N[C@@H](CCCCNC(=O)COCCOCCNC(=O)COCCOCCNC(=O)CC[C@H](NC(=O)CCCCCCCCCCCCCCCCC(=O)O)C(=O)O)C(=O)NCC(=O)NCC(=O)N[C@@H](CO)C(=O)N[C@@H](CCCCNC(=O)[C@H](CCCCNc1c(NCCCCCN(O)C(=O)CCC(=O)NCCCCCN(O)C(=O)CCC(=O)NCCCCCN(O)C(C)=O)c(=O)c1=O)Nc1c(NCCCCCN(O)C(=O)CCC(=O)NCCCCCN(O)C(=O)CCC(=O)NCCCCCN(O)C(C)=O)c(=O)c1=O)C(=O)O)C(C)C	GLP1R	cAMP reporter gene, agonist, CRE luciferase	BHK	without Zr, 1% HSA		EC50	0.14 nM
CC[C@H](C)[C@H](NC(=O)[C@H](Cc1ccccc1)NC(=O)[C@H](CCC(=O)O)NC(=O)[C@H](CCCNC(=N)N)NC(=O)[C@H](C)NC(=O)[C@H](C)NC(=O)[C@H](CCC(N)=O)NC(=O)[C@H](CCC(=O)O)NC(=O)[C@H](CCC(=O)O)NC(=O)[C@H](CC(C)C)NC(=O)[C@H](Cc1ccc(O)cc1)NC(=O)[C@H](CO)NC(=O)[C@H](CO)NC(=O)[C@@H](NC(=O)[C@H](CC(=O)O)NC(=O)[C@H](CO)NC(=O)[C@@H](NC(=O)[C@H](Cc1ccccc1)NC(=O)[C@@H](NC(=O)CNC(=O)[C@H](CCC(=O)O)NC(=O)[C@H](C)NC(=O)CCc1c[nH]cn1)[C@@H](C)O)[C@@H](C)O)C(C)C)C(=O)N[C@@H](C)C(=O)N[C@@H](Cc1c[nH]c2ccccc12)C(=O)N[C@@H](CC(C)C)C(=O)N[C@H](C(=O)N[C@@H](CCCNC(=N)N)C(=O)NCC(=O)N[C@@H](CCCNC(=N)N)C(=O)N[C@@H](CCCCNC(=O)COCCOCCNC(=O)COCCOCCNC(=O)CC[C@H](NC(=O)CCCCCCCCCCCCCCCCC(=O)O)C(=O)O)C(=O)NCC(=O)NCC(=O)N[C@@H](CO)C(=O)N[C@@H](CCCCNc1c(NCCCCCN(O)C(=O)CCC(=O)NCCCCCN(O)C(=O)CCC(=O)NCCCCCN(O)C(C)=O)c(=O)c1=O)C(=O)O)C(C)C [zirconium-89 labelled]			rat, duodenum	iv, 3 nmol/kg, 24 h, ex vivo		tissue uptake	0.2 %ID/g
CC[C@H](C)[C@H](NC(=O)[C@H](Cc1ccccc1)NC(=O)[C@H](CCC(=O)O)NC(=O)[C@H](CCCNC(=N)N)NC(=O)[C@H](C)NC(=O)[C@H](C)NC(=O)[C@H](CCC(N)=O)NC(=O)[C@H](CCC(=O)O)NC(=O)[C@H](CCC(=O)O)NC(=O)[C@H](CC(C)C)NC(=O)[C@H](Cc1ccc(O)cc1)NC(=O)[C@H](CO)NC(=O)[C@H](CO)NC(=O)[C@@H](NC(=O)[C@H](CC(=O)O)NC(=O)[C@H](CO)NC(=O)[C@@H](NC(=O)[C@H](Cc1ccccc1)NC(=O)[C@@H](NC(=O)CNC(=O)[C@H](CCC(=O)O)NC(=O)[C@H](C)NC(=O)CCc1cnc[nH]1)[C@@H](C)O)[C@@H](C)O)C(C)C)C(=O)N[C@@H](C)C(=O)N[C@@H](Cc1c[nH]c2ccccc12)C(=O)N[C@@H](CC(C)C)C(=O)N[C@H](C(=O)N[C@@H](CCCCNC(=O)COCCOCCNC(=O)COCCOCCNC(=O)CC[C@H](NC(=O)CCCCCCCCCCCCCCCCC(=O)O)C(=O)O)C(=O)NCC(=O)N[C@@H](CCCNC(=N)N)C(=O)N[C@@H](CCCCNc1c(NCCCCCN(O)C(=O)CCC(=O)NCCCCCN(O)C(=O)CCC(=O)NCCCCCN(O)C(C)=O)c(=O)c1=O)C(=O)NCC(=O)NCC(=O)N[C@@H](CO)C(=O)N[C@@H](CCCCNc1c(NCCCCCN(O)C(=O)CCC(=O)NCCCCCN(O)C(=O)CCC(=O)NCCCCCN(O)C(C)=O)c(=O)c1=O)C(=O)NCC(=O)NCC(=O)N[C@@H](CO)C(=O)N[C@@H](CCCCNc1c(NCCCCCN(O)C(=O)CCC(=O)NCCCCCN(O)C(=O)CCC(=O)NCCCCCN(O)C(C)=O)c(=O)c1=O)C(=O)O)C(C)C	GLP1R	cAMP reporter gene, agonist, CRE luciferase	BHK	without Zr, 0% HSA		EC50	0.014 nM
COc1cc(Nc2ncc(F)c(Nc3ccc4c(n3)NC(=O)C(C)(C)O4)n2)cc(OC)c1OC	C5AR1 (Homo sapiens, UniProt P21730)					IC50	> 10000 nM
C[C@H]1CN(c2n[nH]c3nc(N[C@H]4CC[C@H](NS(=O)(=O)CCC(F)(F)F)CC4)ncc23)CCO1	Dolichyl-diphosphooligosaccharide--protein glycosyltransferase 48 kDa subunit (Homo sapiens, UniProt P39656)	biochemical				IC50	≥ 20000 nM
COc1ccc(N=Nc2ccc3[nH]cc(CCN(C)C)c3c2)cc1	HTR1A (Homo sapiens, UniProt P08908)	binding, radioligand binding		ambient light		Ki	24.8 nM
CSCC[C@H](NC(=O)CNC(=O)[C@H](Cc1ccccc1)NC(=O)[C@H](CC(=O)O)NC(=O)CNC(=O)c1ccc2c(c1)C(=O)OC21c2ccc(N(C)C)cc2Oc2cc(N(C)C)ccc21)C(=O)N[C@@H](CO)C(=O)N[C@@H](CCCNC(=N)N)C(=O)N[C@@H](CC(=O)O)C(=O)N[C@H](C(=O)N[C@@H](Cc1ccc(OP(=O)(O)O)cc1)C(=O)N[C@@H](CO)C(=O)N[C@H](C(=O)N[C@@H](CC(=O)O)C(=O)N[C@@H](Cc1ccc(O)cc1)C(=O)N[C@@H](Cc1ccc(O)cc1)C(=O)N[C@@H](CCCNC(=N)N)C(=O)N[C@H](C(=O)N[C@@H](CC(=O)O)C(=O)O)C(C)C)[C@@H](C)O)C(C)C	Tyrosine-protein kinase ABL2, SH2 domain (ABL2, Homo sapiens, UniProt P42684)	binding				Kd	444 nM
CC[C@H](C)[C@H](NC(=O)[C@H](Cc1ccccc1)NC(=O)[C@H](CCC(=O)O)NC(=O)[C@H](CCCNC(=N)N)NC(=O)[C@H](C)NC(=O)[C@H](C)NC(=O)[C@H](CCC(N)=O)NC(=O)[C@H](CCC(=O)O)NC(=O)[C@H](CCC(=O)O)NC(=O)[C@H](CC(C)C)NC(=O)[C@H](Cc1ccc(O)cc1)NC(=O)[C@H](CO)NC(=O)[C@H](CO)NC(=O)[C@@H](NC(=O)[C@H](CC(=O)O)NC(=O)[C@H](CO)NC(=O)[C@@H](NC(=O)[C@H](Cc1ccccc1)NC(=O)[C@@H](NC(=O)CNC(=O)[C@H](CCC(=O)O)NC(=O)[C@H](C)NC(=O)CCc1cnc[nH]1)[C@@H](C)O)[C@@H](C)O)C(C)C)C(=O)N[C@@H](C)C(=O)N[C@@H](Cc1c[nH]c2ccccc12)C(=O)N[C@@H](CC(C)C)C(=O)N[C@H](C(=O)N[C@@H](CCCCNc1c(NCCCCCN(O)C(=O)CCC(=O)NCCCCCN(O)C(=O)CCC(=O)NCCCCCN(O)C(C)=O)c(=O)c1=O)C(=O)NCC(=O)N[C@@H](CCCNC(=N)N)C(=O)N[C@@H](CCCCNC(=O)COCCOCCNC(=O)COCCOCCNC(=O)CC[C@H](NC(=O)CCCCCCCCCCCCCCCCC(=O)O)C(=O)O)C(=O)NCC(=O)NCC(=O)N[C@@H](CO)C(=O)N[C@@H](CCCCNc1c(NCCCCCN(O)C(=O)CCC(=O)NCCCCCN(O)C(=O)CCC(=O)NCCCCCN(O)C(C)=O)c(=O)c1=O)C(=O)O)C(C)C	GLP1R	cAMP reporter gene, agonist, CRE luciferase	BHK	with Zr, 0% HSA		EC50	0.0079 nM
C[C@@H](O)[C@@H](CO)NC(=O)[C@@H](CCCNC(=N)N)NC(=O)[C@@H]1CCCN1C(=O)[C@@H]1CSSC[C@H](NC(=O)[C@H](Cc2ccccc2)NC(=O)CN2CCN(CC(=O)O)CCN(CC(=O)O)CCN(CC(=O)O)CC2)C(=O)N[C@@H](Cc2ccc(O)cc2)C(=O)N[C@@H](Cc2ccccc2)C(=O)N[C@@H](CCC(N)=O)C(=O)N[C@@H](CC(N)=O)C(=O)N1 [gallium-68 labelled]			healthy Wistar rat, liver	intravenous, 8 MBq, 60 min, individual animals		tissue uptake	0.24 %ID/g
CC[C@H](C)[C@H](NC(=O)[C@H](CCC(N)=O)NC(=O)[C@H](Cc1c[nH]cn1)NC(=O)c1ccc2c(c1)C(=O)OC21c2ccc(N(C)C)cc2Oc2cc(N(C)C)ccc21)C(=O)N[C@@H](CO)C(=O)N[C@@H](CC(C)C)C(=O)N[C@@H](CC(=O)O)C(=O)N[C@@H](CC(N)=O)C(=O)N1CCC[C@H]1C(=O)N[C@@H](CC(=O)O)C(=O)N[C@@H](Cc1ccc(OP(=O)(O)O)cc1)C(=O)N[C@@H](CCC(N)=O)C(=O)N[C@@H](CCC(N)=O)C(=O)N[C@@H](CC(=O)O)C(=O)N[C@@H](Cc1ccccc1)C(=O)N[C@@H](Cc1ccccc1)C(=O)N1CCC[C@H]1C(=O)N[C@@H](CCCCN)C(=O)N[C@@H](CC(=O)O)C(=O)O	Tyrosine-protein kinase SYK, SH2 domains (SYK, Homo sapiens, UniProt P43405)	binding				Kd	1280 nM
CC[C@H](C)[C@@H]1NC(=O)[C@@H]2CCCN2C(=O)[C@H](CC(C)C)NC(=O)[C@H](CC(C)C)NC(=O)CNC(=O)[C@@H](NC(=O)[C@@H](NC(=O)[C@H](CC(=O)O)NC(=O)CNC(=O)[C@@H](NC(=O)[C@H](C)NC(=O)CNC(=O)[C@H](CCCCN)NC(=O)[C@H](CC(C)C)NC(=O)[C@H](CC(C)C)NC(=O)[C@H](CCCCN)NC(=O)CNC(=O)[C@@H](NC(=O)[C@@H](N)CC(C)C)C(C)C)C(C)C)C(C)C)CSSC[C@@H](C(=O)O)NC1=O		RNA-seq, measured: Lcp1	mouse, traumatic brain injury model, frontal cortex and hippocampus	dose not given	reference: TBI alone	log2 fold change	-2.03

Excerpt of the above:
Compound	target or system	assay	system	setting	how to read	measurement	result
COc1ccc(N=Nc2ccc3[nH]cc(CCN(C)C)c3c2)cc1	HTR1A (Homo sapiens, UniProt P08908)	binding, radioligand binding		ambient light		Ki	24.8 nM
